Measurements gathered from unrelated publications.
Compare with care: the assays were run in different laboratories. ± marks the error that the study gave.
Ectonucleoside triphosphate diphosphohydrolase 3: Ectonucleoside triphosphate diphosphohydrolase 3 (Homo sapiens, UniProt O75355)
Chain of UniProt O75355 (whole entry, looked up): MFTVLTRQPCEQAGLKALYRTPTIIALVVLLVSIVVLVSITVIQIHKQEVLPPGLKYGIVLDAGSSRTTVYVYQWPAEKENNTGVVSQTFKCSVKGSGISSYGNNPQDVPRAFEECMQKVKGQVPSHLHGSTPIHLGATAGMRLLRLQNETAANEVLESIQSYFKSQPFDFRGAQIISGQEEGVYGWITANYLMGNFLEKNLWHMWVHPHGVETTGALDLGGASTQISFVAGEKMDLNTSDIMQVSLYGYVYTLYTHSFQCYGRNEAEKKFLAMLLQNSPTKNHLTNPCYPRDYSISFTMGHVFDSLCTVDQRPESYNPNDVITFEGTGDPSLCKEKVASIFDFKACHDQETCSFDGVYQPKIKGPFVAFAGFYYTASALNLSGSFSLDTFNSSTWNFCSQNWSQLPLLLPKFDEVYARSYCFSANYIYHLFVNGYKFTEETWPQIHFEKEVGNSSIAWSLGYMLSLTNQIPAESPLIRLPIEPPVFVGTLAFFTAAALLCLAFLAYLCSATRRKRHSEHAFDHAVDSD
Sigmar1: Sigma non-opioid intracellular receptor 1 (Sigmar1, Rattus norvegicus, UniProt Q9R0C9)
Chain of UniProt Q9R0C9 (whole entry, looked up): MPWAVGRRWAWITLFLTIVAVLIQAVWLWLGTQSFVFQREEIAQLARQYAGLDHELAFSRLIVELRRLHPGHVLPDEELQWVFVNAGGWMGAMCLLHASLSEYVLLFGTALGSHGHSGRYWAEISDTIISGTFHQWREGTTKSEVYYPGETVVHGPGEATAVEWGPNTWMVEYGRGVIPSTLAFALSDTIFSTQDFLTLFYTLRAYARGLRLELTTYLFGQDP
hdac10: Polyamine deacetylase HDAC10 (hdac10, Danio rerio, UniProt F1QCV2)
Chain of UniProt F1QCV2 (whole entry, looked up): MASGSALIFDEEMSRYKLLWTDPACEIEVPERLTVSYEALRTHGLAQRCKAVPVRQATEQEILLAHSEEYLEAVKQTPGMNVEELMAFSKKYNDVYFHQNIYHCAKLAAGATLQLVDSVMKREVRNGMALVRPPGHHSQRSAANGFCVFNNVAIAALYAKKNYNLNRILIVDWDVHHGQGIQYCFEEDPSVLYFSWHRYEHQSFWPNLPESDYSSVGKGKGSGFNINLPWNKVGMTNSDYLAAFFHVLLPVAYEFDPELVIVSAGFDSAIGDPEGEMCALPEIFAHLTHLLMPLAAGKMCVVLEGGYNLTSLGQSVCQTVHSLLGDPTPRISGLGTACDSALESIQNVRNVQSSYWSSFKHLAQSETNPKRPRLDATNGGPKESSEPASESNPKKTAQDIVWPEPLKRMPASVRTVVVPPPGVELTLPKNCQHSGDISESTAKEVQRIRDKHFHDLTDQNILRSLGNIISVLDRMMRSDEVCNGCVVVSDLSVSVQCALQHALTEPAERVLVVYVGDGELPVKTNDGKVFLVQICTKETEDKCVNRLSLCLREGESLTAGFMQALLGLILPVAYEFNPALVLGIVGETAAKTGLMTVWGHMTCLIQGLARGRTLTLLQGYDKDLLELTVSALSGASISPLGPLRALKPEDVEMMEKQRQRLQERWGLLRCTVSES
AKR1C2: Aldo-keto reductase family 1 member C2 (AKR1C2, Homo sapiens, UniProt P52895)
Chain of UniProt P52895 (whole entry, looked up): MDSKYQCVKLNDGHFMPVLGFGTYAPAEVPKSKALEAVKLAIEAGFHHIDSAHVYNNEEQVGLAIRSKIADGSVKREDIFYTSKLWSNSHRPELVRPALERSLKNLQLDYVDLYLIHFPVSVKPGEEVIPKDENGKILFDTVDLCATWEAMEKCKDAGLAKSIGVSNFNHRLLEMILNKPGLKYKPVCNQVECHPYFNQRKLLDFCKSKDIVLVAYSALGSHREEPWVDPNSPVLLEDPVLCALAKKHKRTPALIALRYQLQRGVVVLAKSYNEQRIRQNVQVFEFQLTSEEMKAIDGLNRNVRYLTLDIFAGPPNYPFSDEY
CDK4 with cyclin D3: Cyclin-dependent kinase 4, with cyclin D3 (CDK4, Homo sapiens, UniProt P11802)
Chain of UniProt P11802 (whole entry, looked up): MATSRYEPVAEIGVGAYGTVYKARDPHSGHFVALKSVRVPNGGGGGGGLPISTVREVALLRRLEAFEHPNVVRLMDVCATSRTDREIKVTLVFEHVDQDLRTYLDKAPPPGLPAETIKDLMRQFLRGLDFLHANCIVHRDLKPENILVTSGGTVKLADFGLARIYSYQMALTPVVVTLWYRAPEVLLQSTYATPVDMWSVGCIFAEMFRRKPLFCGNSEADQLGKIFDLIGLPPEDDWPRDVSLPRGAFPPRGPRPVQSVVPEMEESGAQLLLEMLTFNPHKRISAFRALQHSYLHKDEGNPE
AMY2: Pancreatic alpha-amylase (AMY2, Sus scrofa, UniProt P00690)
Chain of UniProt P00690 (whole entry, looked up): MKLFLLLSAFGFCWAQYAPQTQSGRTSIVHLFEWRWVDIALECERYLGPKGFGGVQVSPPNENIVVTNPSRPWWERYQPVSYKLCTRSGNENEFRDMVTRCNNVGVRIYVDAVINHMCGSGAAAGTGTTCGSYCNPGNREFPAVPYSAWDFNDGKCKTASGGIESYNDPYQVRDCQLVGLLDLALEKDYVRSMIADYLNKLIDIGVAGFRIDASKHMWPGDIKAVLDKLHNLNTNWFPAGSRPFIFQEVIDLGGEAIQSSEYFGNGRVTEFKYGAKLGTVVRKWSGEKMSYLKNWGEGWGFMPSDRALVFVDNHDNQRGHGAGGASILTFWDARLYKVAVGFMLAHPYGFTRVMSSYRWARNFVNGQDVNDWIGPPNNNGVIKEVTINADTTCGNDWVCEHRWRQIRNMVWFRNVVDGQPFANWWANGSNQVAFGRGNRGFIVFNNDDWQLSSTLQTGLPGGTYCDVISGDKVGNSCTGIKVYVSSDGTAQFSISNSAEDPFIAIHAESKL
CA2: Carbonic anhydrase 2 (CA2, Bos taurus, UniProt P00921)
Chain of UniProt P00921 (whole entry, looked up): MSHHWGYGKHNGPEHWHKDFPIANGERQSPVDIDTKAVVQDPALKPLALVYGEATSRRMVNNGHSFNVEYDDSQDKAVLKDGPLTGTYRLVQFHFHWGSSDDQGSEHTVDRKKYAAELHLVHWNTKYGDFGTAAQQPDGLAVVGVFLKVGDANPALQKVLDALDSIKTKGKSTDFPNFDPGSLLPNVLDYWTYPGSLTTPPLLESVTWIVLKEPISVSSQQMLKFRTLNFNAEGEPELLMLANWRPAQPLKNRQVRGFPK
uidA: Beta-glucuronidase (uidA, Escherichia coli, UniProt P05804)
Chain of UniProt P05804 (whole entry, looked up): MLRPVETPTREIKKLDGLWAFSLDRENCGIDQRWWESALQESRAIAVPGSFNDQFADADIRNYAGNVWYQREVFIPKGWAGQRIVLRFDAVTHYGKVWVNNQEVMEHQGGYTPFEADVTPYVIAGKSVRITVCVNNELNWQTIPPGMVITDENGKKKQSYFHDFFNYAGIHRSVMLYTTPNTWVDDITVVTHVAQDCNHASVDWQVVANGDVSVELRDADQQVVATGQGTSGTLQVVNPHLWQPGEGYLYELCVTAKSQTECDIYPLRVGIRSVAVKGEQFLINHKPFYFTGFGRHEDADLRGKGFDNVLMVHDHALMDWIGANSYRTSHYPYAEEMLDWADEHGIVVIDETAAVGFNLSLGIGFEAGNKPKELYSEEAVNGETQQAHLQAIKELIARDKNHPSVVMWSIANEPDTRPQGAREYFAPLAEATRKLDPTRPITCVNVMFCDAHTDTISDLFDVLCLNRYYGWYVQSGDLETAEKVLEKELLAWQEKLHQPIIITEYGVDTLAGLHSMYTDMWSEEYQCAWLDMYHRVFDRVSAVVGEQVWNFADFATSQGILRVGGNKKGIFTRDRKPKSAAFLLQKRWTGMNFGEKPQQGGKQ
PDK1: [Pyruvate dehydrogenase (acetyl-transferring)] kinase isozyme 1, mitochondrial (PDK1, Homo sapiens, UniProt Q15118)
Chain of UniProt Q15118 (whole entry, looked up): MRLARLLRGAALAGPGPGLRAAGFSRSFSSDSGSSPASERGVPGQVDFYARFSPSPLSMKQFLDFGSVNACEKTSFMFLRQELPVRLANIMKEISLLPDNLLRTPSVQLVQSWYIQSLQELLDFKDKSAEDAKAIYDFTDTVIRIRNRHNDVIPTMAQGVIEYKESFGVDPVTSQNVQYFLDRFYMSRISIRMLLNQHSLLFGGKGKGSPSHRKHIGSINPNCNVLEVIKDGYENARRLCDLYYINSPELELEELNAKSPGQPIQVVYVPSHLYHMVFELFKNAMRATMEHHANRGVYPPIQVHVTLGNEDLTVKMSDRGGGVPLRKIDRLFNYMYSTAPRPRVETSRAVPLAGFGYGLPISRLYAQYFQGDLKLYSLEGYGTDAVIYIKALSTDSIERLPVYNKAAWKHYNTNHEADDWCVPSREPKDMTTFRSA
ELANE: Neutrophil elastase (ELANE, Homo sapiens, UniProt P08246)
Chain of UniProt P08246 (whole entry, looked up): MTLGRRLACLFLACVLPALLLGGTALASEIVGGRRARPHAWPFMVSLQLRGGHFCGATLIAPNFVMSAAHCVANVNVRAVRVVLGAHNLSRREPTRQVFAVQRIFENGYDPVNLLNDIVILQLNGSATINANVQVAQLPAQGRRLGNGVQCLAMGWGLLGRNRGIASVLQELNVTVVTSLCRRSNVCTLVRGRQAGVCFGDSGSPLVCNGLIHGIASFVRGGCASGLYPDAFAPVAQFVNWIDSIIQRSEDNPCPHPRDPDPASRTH
Chain of UniProt Q13882 (whole entry, looked up): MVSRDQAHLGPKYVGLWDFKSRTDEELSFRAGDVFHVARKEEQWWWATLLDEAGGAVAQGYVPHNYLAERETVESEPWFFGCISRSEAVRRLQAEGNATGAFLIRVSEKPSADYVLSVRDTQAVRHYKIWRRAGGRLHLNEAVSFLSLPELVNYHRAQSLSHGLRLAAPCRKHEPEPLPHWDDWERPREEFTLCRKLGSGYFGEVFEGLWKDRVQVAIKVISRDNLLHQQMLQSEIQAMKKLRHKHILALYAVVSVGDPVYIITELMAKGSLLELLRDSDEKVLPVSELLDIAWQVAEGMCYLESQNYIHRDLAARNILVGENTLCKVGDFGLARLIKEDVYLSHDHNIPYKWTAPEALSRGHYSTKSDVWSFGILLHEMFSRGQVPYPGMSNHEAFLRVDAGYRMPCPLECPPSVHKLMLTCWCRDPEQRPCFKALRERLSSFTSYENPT
Chain of UniProt Q9NZQ7 (whole entry, looked up): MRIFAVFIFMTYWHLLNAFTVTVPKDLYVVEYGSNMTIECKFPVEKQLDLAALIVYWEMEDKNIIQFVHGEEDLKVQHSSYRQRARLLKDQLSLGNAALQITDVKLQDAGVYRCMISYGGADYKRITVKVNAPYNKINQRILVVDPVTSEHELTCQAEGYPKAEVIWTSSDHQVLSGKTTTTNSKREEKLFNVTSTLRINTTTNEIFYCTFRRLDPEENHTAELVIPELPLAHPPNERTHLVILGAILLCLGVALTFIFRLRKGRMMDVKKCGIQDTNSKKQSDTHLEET

O=C(Nc1ccc(Cl)cc1)c1cccc(S(=O)(=O)Nc2ccc(Cl)cc2)c1  inhibition (Ectonucleoside triphosphate diphosphohydrolase 3; enzyme activity, inhibitor, absorbance; 100 µM): 22%
CC(C)(C)OC(=O)N1CCC[C@H](O)[C@H]1CC(=O)Cn1cnc2cc(Br)c(Cl)cc2c1=O (relative stereo)  inhibition (Bifunctional glutamate/proline--tRNA ligase, prolyl-tRNA synthetase domain (EPRS1, Homo sapiens, UniProt P07814); enzyme activity; concentration not given, with: [14C]-proline): no inhibition
O=C(c1cccc(S(=O)(=O)NC2CC2)c1)N1CCOCC1  inhibition (Ectonucleoside triphosphate diphosphohydrolase 8 (Homo sapiens, UniProt Q5MY95); enzyme activity, inhibitor, absorbance; 100 µM): 35%
C/C(=N\OCCN1CCOCC1)c1cccc(C(F)(F)F)c1  inhibition (Sigmar1; radioligand binding; 1 µM): 66.6%
O=C1CSC(c2cccc(Br)c2)N1c1cc(Cl)ccc1O (stereo not drawn)  inhibition (ACTR3/Actin-related protein 2 (Homo sapiens, UniProt P61158+P61160); actin polymerization, pyrenyl-actin; 20 µM, with: 300 nM ActA): inhibited
O=C(/C=C/c1ccc(Cl)cc1Cl)NO  inhibition (hdac10; 1 µM): > 95%
C/C(=N\OCCN1CCCC1)c1ccccc1C(F)(F)F  inhibition (Sigmar1; radioligand binding; 1 µM): 63%
C[C@]12CC[C@@H]3c4ccc(O)c(Br)c4CC[C@H]3[C@@H]1CCC2=O  inhibition (AKR1C2; enzyme activity, inhibitor, absorbance; 100 µM, pH 9): 62.5%
O=C(/C=C/c1ccc2c(c1)sc1ccccc12)NO  inhibition (hdac10; 0.1 µM): < 10%
CCCCCCCCCCCCCCCC(=O)N[C@@H](CCCCN)C(=O)N[C@@H](CCCCN)C(=O)N[C@@H](CO)C(=O)N[C@@H](CCCNC(=N)N)C(=O)N[C@@H](C)C(=O)N[C@@H](CC(C)C)C(=O)N[C@@H](Cc1ccccc1)C(N)=O  inhibition (Proteinase-activated receptor 4 (F2RL3, Homo sapiens, UniProt Q96RI0); platelet aggregation, antagonist; human gel-filtered platelets; concentration not given, with: AYPGKF 200 µM): inactive
C[C@@]12CC[C@@H]3c4cc(Br)c(O)c(Br)c4CC[C@H]3[C@@H]1CCC2=O  inhibition (AKR1C2; enzyme activity, inhibitor, absorbance; 100 µM, pH 9): 86%
COc1cc(/C=C/C(=O)NO)ccc1OCc1ccccc1  inhibition (hdac10; 1 µM): 30%
O=C(CCCCCCOc1ccc(Nc2ncc(F)c(-c3cn(C4CCCCC4)nn3)n2)cc1)NO  inhibition (CDK4 with cyclin D3; enzyme activity, inhibitor, TR-FRET; 50 nM): 4.5%
CC(=O)OC1CCC2(C)C(CCC3(C)C2CCC2C(C4=CC(C=C(C)C)OC4=O)CCC23C)C1(C)C (stereo not drawn)  inhibition (AMY2; enzyme activity, inhibitor, absorbance; 250 µM): 26.5%
COc1ccc(-n2c(-c3ccccc3)cs/c2=N/N=C/c2ccc(N3CCOCC3)cc2)cc1  inhibition (CA2; enzyme activity, inhibitor, absorbance; 500 µM): 80.7%
FC(F)(F)Oc1cccc(Nc2ncnc3[nH]c4cc(Br)ccc4c23)c1  inhibition (Protein-tyrosine kinase 6 (PTK6, Homo sapiens, UniProt Q13882); enzyme activity, inhibitor, ADP detection; 2 µM): 22%
COc1cccc(COc2ccccc2/C=C/C(=O)NO)c1  inhibition (hdac10; 0.1 µM): 18%
O=c1c(-c2nc3ccccc3s2)cc2c(n1NS(=O)(=O)c1ccc(Cl)cc1)CCCCCC2  inhibition (Ubiquitin carboxyl-terminal hydrolase 7 (USP7, Homo sapiens, UniProt Q93009); enzyme activity, inhibitor, fluorescence; 1 µg/mL): 20.3%
CN(C1COC1)C(C)(C)/C=C(\C#N)C(=O)N1CCC[C@H]1Cn1nc(-c2ccc(Oc3ccccc3)cc2F)c2c(N)ncnc21  inhibition (Tyrosine-protein kinase TXK (TXK, Homo sapiens, UniProt P42681); 1 µM, mean): > 90%
C/C(=N\OCCN1CCCCC1)c1ccccc1C(F)(F)F  inhibition (Sigmar1; radioligand binding; 1 µM): 73.6%
Nc1ncnc2c1ncn2C1OC(COc2ccc(CCC(=O)c3ccccc3C(=O)O)cc2)C(O)C1O (stereo not drawn)  inhibition (2-succinylbenzoate--CoA ligase (menE, Escherichia coli, UniProt P37353); enzyme activity, inhibitor, MenE–MenB coupled; concentration not given): no inhibition
C[C@@]12CC[C@@H]3c4cc(I)c(O)cc4CC[C@H]3[C@@H]1CCC2=O  inhibition (AKR1C2; enzyme activity, inhibitor, absorbance; 100 µM, pH 9): 50%
S=C(Nc1ccc(Cl)cc1)Nc1ccc2[nH]cnc2c1  inhibition (uidA; enzyme activity, inhibitor, absorbance; 100 µM): 57.8%
COc1ccc(Cn2ccc3ccc(C(=O)NO)cc32)cc1  inhibition (hdac10; 0.1 µM): 14%
O=C(c1ccc(Oc2ccc(Cl)cc2)c([N+](=O)[O-])c1)C(Cl)Cl  inhibition (PDK1; enzyme activity, inhibitor, ATP luminescence; 10 µM): 50.1%
COc1ccc(C(=O)NO)cc1NC(=O)c1ccc(Cl)cc1  inhibition (hdac10; 0.1 µM): 14%
COc1cc(C(=O)NC2CCC(N3CCN(CC4CCC5(CCCC5)C4)CC3)CC2)c(F)cc1Nc1ncc2c(n1)N(C1CCCC1(F)F)CC(F)(F)C(=O)N2C (stereo not drawn)  inhibition (Ephrin type-B receptor 3 (EPHB3, Homo sapiens, UniProt P54753); cell-free assay, TR-FRET; 10 µM): 0.53%
COc1cc2c(cc1Cl)[C@H]1CC[C@@]3(C)C(=O)CC[C@H]3[C@@H]1CC2  inhibition (AKR1C2; enzyme activity, inhibitor, absorbance; 100 µM, pH 9): 76.3%
O=C(O[C@@H]1Cc2c(O)cc(O)cc2O[C@@H]1c1ccc(O)cc1)c1cc(O)c(O)c(O)c1  inhibition (Pancreatic triacylglycerol lipase (PNLIP, Sus scrofa, UniProt P00591); enzyme activity, inhibitor; 10 µM): 97%
C(=N\N=c1\scc(-c2ccccc2)n1-c1ccccc1)/c1ccc(N2CCOCC2)cc1  inhibition (CA2; enzyme activity, inhibitor, absorbance; 500 µM): 87.6%
CC(C)Cn1cc(-c2ccnc(Nc3ccc(N4CCN(CCCCCCC(=O)NO)CC4)cc3)n2)nn1  inhibition (CDK4 with cyclin D3; enzyme activity, inhibitor, TR-FRET; 5 µM): 88.7%
Nc1nc2cc(CC[C@H]3C[C@@H](n4ccc5c(N)ncnc54)[C@H](O)[C@@H]3O)ccc2cc1Br  inhibition (Protein arginine N-methyltransferase 5, with WDR77 (PRMT5, Homo sapiens, UniProt O14744); methyltransferase activity, inhibitor; 10 µM): > 80%
CC(C)Oc1ccc(C(=O)C(Cl)Cl)cc1[N+](=O)[O-]  inhibition (PDK1; enzyme activity, inhibitor, ATP luminescence; 10 µM): 22.3%
O=C(/C=C/c1cccc(Cl)c1)NO  inhibition (hdac10; 0.1 µM): 18%
CCOC(=O)c1c(NC(=O)CCl)sc2c1CCC(c1ccccc1)C2 (stereo not drawn)  inhibition (PDK1; enzyme activity, inhibitor, ATP luminescence; 100 µg/mL): 38%
CCc1nc2ccccc2n1S(=O)(=O)c1ccc2c(c1)C(=O)CC2=O  inhibition (ELANE; enzyme activity, inhibitor, fluorescence; 1 µM): 52.6%
O=C(/C=C/c1ccccc1Br)NO  inhibition (hdac10; 0.1 µM): 23%
COc1ccc2c(c1Br)CC[C@@H]1[C@@H]2CC[C@@]2(C)C(=O)CC[C@@H]12  inhibition (AKR1C2; enzyme activity, inhibitor, absorbance; 100 µM, pH 9): 15%
C/C(=N\OCCN(C)Cc1ccccc1)c1ccc(C(F)(F)F)cc1  inhibition (Sigmar1; radioligand binding; 10 µM): 102%
O=P(O)(O)C(NCc1cccc(O)c1O)c1ccccc1 (stereo not drawn)  inhibition (1-deoxy-D-xylulose 5-phosphate reductoisomerase (Escherichia coli K-12, UniProt P45568); enzyme activity, inhibitor, absorbance; 50 µM): 96.8%
O=C(/C=C/c1ccc2c(c1)OCCO2)c1cccs1  inhibition (Amine oxidase [flavin-containing] B (MAOB, Homo sapiens, UniProt P27338); enzyme activity, inhibitor, fluorescence; 1 µM): 72.8%
Cn1c(-c2ccccc2)ccc1-c1nc(-c2ncc(Br)cn2)no1  inhibition (Programmed cell death 1 ligand 1, with PD-1 (CD274, Homo sapiens, UniProt Q9NZQ7); PD-1/PD-L1 binding, inhibitor, TR-FRET; 25 µM): ≥ 20%
COc1ccc(NC(=S)Nc2ccc3[nH]cnc3c2)cc1  inhibition (uidA; enzyme activity, inhibitor, absorbance; 100 µM): 63.8%
CCC(=O)N(C)c1ccc(Cl)c(Cl)c1  inhibition (5-hydroxytryptamine receptor 3A (HTR3A, Homo sapiens, UniProt P46098); ligand displacement, radioligand; 10 µM): 12.4%
COc1cc(O)c2c(=O)cc(-c3ccccc3)oc2c1  inhibition (α-glucosidase (Saccharomyces cerevisiae); inhibitor; 10 µg/mL, with: pNPG): 32 ± 1.07%
CN(CCON=Cc1ccc(C(F)(F)F)cc1)Cc1ccccc1  inhibition (Sigmar1; radioligand binding; 10 µM): 105%
CC[C@H](C)[C@H](NC(=O)[C@H](CCCNC(=N)N)NC(=O)[C@H](CCCCN)NC(=O)[C@@H]1CCCN1C(=O)[C@H](CO)n1cc(CN(CC[C@H](N)C(=O)O)C[C@H]2O[C@@H](n3cnc4c(N)ncnc43)[C@H](O)[C@@H]2O)nn1)C(=O)N[C@@H](C)C(N)=O  inhibition (Histone-lysine N-methyltransferase EHMT2 (EHMT2, Homo sapiens, UniProt Q96KQ7); enzyme activity, inhibitor, fluorescence; 50 µM): < 50%
Cc1cccc(/C=C/C(=O)c2cnn(-c3ccccc3)c2C)c1  inhibition (AMY2; enzyme activity, inhibitor, absorbance; 140 µM): 27.7%
CCCCSc1nnc(-c2ccc(N)cc2)o1  inhibition (Signal transducer and activator of transcription 3 (STAT3, Homo sapiens, UniProt P40763); phosphopeptide binding, AlphaScreen; 60 µg/mL): 74.1%
C[C@]12CCC[C@H]1[C@@H]1CCc3c(cc(I)c(O)c3I)[C@H]1CC2  inhibition (AKR1C2; enzyme activity, inhibitor, absorbance; 10 µM, pH 9): 22.9%
CCc1nc2ccccn2c1C(=O)NCc1ccc2oc(-c3ccc(OC(F)(F)F)cc3)nc2c1  inhibition (Cytochrome bc1-aa3 supercomplex (Mycolicibacterium smegmatis, UniProt A0R052+I7GD61); oxygen consumption, Clark electrode; 10 µM, with: NADH): 50%
O=C(NCc1ccccc1)c1cc(S(=O)(=O)NCc2ccccc2)ccc1Cl  inhibition (Ectonucleoside triphosphate diphosphohydrolase 3; enzyme activity, inhibitor, absorbance; 100 µM): 12%
O=C1CC(=O)c2cc(S(=O)(=O)n3cnc4ccccc43)ccc21  inhibition (ELANE; enzyme activity, inhibitor, fluorescence; 0.1 µM): 14.3%
CC1CCN(C(=O)CCc2nc(CN3CCN(S(=O)(=O)c4ccc(Cl)cc4)CC3)no2)CC1  inhibition (Sodium channel protein type 9 subunit alpha (SCN9A, Homo sapiens, UniProt Q15858); sodium current, whole-cell patch clamp; HEK293, stable; 20 µM): 24 ± 4%

For quick reference, copied from above:
CC(C)Cn1cc(-c2ccnc(Nc3ccc(N4CCN(CCCCCCC(=O)NO)CC4)cc3)n2)nn1  inhibition (CDK4 with cyclin D3; enzyme activity, inhibitor, TR-FRET; 5 µM): 88.7%
O=c1c(-c2nc3ccccc3s2)cc2c(n1NS(=O)(=O)c1ccc(Cl)cc1)CCCCCC2  inhibition (Ubiquitin carboxyl-terminal hydrolase 7 (USP7, Homo sapiens, UniProt Q93009); enzyme activity, inhibitor, fluorescence; 1 µg/mL): 20.3%
COc1ccc(C(=O)NO)cc1NC(=O)c1ccc(Cl)cc1  inhibition (hdac10; 0.1 µM): 14%
